Results collected from several papers.
A part holds a random share of what one study measured.
Sequence of UniProt Q9H093 (whole entry, looked up): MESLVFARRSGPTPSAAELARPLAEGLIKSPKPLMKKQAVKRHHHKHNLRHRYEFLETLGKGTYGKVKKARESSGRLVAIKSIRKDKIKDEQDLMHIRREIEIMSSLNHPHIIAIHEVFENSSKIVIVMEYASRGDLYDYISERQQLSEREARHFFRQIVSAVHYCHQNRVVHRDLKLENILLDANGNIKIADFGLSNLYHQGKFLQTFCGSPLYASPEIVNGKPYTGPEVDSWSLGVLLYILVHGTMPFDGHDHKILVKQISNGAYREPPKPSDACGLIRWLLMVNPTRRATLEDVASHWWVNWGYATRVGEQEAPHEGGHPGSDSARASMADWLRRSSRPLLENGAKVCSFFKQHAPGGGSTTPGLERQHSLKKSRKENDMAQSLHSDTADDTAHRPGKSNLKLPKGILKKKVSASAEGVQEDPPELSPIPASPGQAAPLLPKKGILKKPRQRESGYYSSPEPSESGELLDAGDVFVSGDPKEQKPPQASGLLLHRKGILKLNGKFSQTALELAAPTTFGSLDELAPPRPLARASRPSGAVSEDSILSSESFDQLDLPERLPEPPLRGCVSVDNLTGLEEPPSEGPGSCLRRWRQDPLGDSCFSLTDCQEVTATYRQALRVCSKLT
Sequence of UniProt Q9H2G2 (whole entry, looked up): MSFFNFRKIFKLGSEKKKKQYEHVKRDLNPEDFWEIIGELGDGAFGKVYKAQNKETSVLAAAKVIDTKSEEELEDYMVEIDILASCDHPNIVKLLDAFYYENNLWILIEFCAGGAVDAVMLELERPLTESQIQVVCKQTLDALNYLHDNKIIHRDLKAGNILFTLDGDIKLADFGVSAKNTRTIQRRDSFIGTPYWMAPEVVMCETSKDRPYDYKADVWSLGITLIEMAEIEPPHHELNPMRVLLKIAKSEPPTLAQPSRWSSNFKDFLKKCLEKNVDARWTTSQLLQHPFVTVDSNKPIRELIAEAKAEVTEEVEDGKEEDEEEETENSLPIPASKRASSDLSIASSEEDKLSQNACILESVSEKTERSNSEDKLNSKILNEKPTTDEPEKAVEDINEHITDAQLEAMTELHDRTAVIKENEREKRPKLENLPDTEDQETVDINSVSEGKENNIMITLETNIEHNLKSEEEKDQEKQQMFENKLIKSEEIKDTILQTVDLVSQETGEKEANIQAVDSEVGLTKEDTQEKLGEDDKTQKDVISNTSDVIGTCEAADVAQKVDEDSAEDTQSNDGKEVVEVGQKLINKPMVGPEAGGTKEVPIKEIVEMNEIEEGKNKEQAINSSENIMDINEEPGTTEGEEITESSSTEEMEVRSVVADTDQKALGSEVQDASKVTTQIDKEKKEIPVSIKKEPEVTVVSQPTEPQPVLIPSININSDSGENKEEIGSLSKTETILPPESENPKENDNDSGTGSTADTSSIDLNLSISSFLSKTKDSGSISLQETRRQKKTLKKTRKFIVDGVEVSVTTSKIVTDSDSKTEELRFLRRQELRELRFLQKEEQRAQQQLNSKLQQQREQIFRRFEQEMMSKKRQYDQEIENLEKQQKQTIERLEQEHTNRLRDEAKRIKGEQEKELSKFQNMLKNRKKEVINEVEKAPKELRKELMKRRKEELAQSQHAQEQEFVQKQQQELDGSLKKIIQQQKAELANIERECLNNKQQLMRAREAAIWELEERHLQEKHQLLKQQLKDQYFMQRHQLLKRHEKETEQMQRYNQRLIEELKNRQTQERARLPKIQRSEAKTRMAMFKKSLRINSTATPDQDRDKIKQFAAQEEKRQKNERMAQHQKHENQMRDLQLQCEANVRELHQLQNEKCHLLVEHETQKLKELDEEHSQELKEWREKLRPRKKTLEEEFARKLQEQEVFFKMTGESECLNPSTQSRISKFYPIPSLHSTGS
Sequence of UniProt Q9Y6R4 (whole entry, looked up): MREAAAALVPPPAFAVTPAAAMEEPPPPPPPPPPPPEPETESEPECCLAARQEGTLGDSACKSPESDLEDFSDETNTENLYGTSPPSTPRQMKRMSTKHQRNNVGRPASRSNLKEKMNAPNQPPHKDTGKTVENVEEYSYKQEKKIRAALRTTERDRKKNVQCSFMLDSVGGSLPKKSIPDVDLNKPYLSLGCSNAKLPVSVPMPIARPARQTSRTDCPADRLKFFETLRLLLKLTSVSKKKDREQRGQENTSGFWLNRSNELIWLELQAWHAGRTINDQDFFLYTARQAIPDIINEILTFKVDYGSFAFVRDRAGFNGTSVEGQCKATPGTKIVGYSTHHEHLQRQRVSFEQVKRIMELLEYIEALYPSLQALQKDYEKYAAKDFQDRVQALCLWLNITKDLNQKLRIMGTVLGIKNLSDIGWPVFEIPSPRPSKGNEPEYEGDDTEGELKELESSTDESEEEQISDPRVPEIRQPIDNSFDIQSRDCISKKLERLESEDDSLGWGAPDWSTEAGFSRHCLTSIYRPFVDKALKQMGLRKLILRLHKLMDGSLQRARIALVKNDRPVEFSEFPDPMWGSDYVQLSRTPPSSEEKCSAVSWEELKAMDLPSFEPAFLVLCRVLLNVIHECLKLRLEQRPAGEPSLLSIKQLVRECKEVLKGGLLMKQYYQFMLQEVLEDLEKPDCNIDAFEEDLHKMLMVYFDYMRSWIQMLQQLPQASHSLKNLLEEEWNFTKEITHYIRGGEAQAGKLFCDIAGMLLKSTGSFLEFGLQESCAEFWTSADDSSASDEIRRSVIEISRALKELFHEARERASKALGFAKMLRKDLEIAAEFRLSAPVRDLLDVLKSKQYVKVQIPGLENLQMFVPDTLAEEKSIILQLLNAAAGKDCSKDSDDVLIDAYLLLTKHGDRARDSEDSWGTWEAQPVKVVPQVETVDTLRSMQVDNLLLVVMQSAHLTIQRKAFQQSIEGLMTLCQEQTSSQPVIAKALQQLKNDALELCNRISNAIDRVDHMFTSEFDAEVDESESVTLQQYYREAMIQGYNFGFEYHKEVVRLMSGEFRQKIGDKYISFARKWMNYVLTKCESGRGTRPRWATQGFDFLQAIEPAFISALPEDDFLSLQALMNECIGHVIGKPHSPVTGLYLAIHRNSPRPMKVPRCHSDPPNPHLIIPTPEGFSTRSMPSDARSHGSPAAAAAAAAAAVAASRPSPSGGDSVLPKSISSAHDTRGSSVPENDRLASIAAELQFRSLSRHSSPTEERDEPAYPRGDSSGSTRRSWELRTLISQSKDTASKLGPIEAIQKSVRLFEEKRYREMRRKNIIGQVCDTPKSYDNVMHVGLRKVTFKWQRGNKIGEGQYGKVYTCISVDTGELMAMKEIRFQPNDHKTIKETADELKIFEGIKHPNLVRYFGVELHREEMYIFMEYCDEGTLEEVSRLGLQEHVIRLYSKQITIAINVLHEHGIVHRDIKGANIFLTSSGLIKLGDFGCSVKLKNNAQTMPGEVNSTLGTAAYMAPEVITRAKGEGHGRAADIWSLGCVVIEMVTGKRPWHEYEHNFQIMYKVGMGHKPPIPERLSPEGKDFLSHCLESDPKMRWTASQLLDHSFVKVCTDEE
Sequence of UniProt P07949 (whole entry, unmodified, looked up): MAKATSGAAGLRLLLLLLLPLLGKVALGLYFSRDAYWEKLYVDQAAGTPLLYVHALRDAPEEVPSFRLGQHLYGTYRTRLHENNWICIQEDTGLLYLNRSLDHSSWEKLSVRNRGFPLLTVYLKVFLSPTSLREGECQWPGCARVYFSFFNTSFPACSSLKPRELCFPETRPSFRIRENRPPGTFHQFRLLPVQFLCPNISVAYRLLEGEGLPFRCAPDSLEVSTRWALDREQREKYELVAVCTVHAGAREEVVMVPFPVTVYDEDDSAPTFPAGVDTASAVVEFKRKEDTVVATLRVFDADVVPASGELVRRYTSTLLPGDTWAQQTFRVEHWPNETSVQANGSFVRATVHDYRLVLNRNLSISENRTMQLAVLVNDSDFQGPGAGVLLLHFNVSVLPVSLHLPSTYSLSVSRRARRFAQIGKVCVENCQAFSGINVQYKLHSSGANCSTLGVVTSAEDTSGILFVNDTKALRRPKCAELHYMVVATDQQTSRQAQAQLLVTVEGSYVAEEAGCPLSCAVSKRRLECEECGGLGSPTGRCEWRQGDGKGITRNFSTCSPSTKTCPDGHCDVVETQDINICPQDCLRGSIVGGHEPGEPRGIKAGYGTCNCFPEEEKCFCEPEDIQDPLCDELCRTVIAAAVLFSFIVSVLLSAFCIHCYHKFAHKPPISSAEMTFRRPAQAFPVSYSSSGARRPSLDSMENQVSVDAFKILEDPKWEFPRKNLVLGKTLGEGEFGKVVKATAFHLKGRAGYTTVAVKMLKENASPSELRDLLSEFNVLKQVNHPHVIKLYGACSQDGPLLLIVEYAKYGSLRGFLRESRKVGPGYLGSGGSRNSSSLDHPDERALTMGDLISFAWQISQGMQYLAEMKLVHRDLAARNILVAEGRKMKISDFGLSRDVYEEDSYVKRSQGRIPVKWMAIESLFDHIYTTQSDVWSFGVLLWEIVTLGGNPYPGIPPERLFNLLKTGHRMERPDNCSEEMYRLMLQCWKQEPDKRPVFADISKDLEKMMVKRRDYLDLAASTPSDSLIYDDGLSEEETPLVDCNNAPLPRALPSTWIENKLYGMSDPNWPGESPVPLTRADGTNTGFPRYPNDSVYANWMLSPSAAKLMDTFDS

Study 1 — cell line: mouse MPNST tumor cells; technique: high-content nuclear imaging; refers to: cell number; tested at: 10 µM; time: 12 h; notes: mean of 2 replicates; reference: plate mean; direction: higher = more cells
| Structure (SMILES) | nuclei count |
| --- | --- |
| COc1ccc(-c2cc(=O)c3c(O)cc(O[C@@H]4O[C@H](CO[C@@H]5O[C@@H](C)[C@H](O)[C@@H](O)[C@H]5O)[C@@H](O)[C@H](O)[C@H]4O)cc3o2)cc1O | 0.544 z-score |
| O=C(O)CCNc1cc(N2CCc3ccccc3CC2)nc(-c2cccnc2)n1 | 0.317 z-score |
| CN(C)[C@@H]1CCN(c2cc(-c3ccccc3)nc3ccnn23)C1 | 0.438 z-score |
| O=C1S/C(=C\c2ccc(OCc3cccc(B(O)O)c3)cc2)C(=O)N1Cc1ccc(F)cc1 | 2.14 z-score |
| Cc1cc(NC(=O)Nc2ccc3c(ccn3C)c2)sn1 | -0.501 z-score |
| Clc1cccc(Cl)c1CSc1nnc(-c2ccc[nH]2)o1 | 2.36 z-score |
| CCCC(CCC)C(=O)NCc1ccc2c(cnn2-c2ccccc2OC)c1 | 1.55 z-score |
| CCOC(=O)c1ccc(C#Cc2ccc3c(c2)C(C)(C)CCS3)nc1 | -0.997 z-score |
| C=C1C(=O)O[C@@H](CCCCCCCC)[C@@H]1C(=O)O.C=C1C(=O)O[C@H](CCCCCCCC)[C@H]1C(=O)O | 0.781 z-score |
| COc1cc(N2CCC(O)CC2)ccc1Nc1cc(Nc2ccccc2S(=O)(=O)C(C)C)c2cc[nH]c2n1 | 1.53 z-score |

Study 2 — read-out: enzyme activity; mode: inhibitor; tested at: 0.5 µM; reference: control
Target: MAP kinase-interacting serine/threonine-protein kinase 1 (MKNK1, Homo sapiens, UniProt Q9BUB5)
Sequence of UniProt Q9BUB5 (whole entry, looked up): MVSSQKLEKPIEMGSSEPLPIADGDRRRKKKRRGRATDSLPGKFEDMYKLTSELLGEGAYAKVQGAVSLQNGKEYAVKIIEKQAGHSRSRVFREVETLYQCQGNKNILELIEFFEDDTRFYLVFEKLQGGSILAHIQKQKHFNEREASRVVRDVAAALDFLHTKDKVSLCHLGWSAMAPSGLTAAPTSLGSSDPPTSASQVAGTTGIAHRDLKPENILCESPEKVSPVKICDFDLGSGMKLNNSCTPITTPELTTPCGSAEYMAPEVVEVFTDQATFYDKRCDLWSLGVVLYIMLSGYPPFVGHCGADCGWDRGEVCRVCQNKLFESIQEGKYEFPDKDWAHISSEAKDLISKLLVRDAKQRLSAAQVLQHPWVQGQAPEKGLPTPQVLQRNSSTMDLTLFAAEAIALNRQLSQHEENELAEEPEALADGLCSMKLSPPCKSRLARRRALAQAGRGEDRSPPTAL
| SMILES | remaining activity [%] |
| --- | --- |
| CN([C@@H](Cc1ccc(OS(=O)(=O)c2cccc3cnccc23)cc1)C(=O)N1CCN(c2ccccc2)CC1)S(=O)(=O)c1cccc2cnccc12 | 106 |
| O=C1c2ccccc2-c2n[nH]c3cccc1c23 | 97 |
| c1ccc(-c2[nH]ncc2-c2ccnc3ccccc23)nc1 | 75.9 |
| c1ccc(-c2cnc(Nc3ccc(OCCN4CCCC4)cc3)s2)cc1 | 64.7 |
| Cc1nc2cc3nc(-c4cccs4)cnc3cc2n1C | 92.7 |
| COc1cc2c(cc1OC)-c1[nH]nc(Nc3cccc(F)c3)c1C2 | 89.8 |
| O=c1cc(-c2cccc3c2Sc2ccccc2S3)oc(N2CCOCC2)c1 | 99.5 |
| Cc1cc2ncc(-c3ccccc3)nc2cc1C | 80.3 |
| O=C(NC(NC(=S)Nc1ccc(F)c([N+](=O)[O-])c1)C(Cl)(Cl)Cl)C(c1ccccc1)c1ccccc1 (stereo not drawn) | 100 |
| Nc1cccc(-c2cc3c(Oc4cccc(O)c4)ncnc3[nH]2)c1 | 87.6 |
| Cc1cn(-c2cc(NC(=O)c3ccc(C)c(Nc4nccc(-c5cccnc5)n4)c3)cc(C(F)(F)F)c2)cn1 | 102 |
| CCN(CC)CCNC(=O)c1c(C)[nH]c(/C=C2\C(=O)Nc3ccc(F)cc32)c1C | 99.3 |
| COc1cc2ncnc(Nc3ccc(O)c(Br)c3)c2cc1OC | 32.7 |
| O=C(Nc1cccc(Nc2nccc(Nc3cccc(C(F)(F)F)c3)n2)c1)C1CC1 | 91 |
| CCOc1nc(NC(=O)Cc2cc(OC)ccc2OC)cc(N)c1C#N | 105 |
| N#Cc1c(NC(=O)c2cccc3ccccc23)sc2c1CCCC2 | 106 |
| Ic1cccc(CSc2nnc(-c3ccncc3)o2)c1 | 109 |
| CCN(CC)CCNC(=O)c1c(C)[nH]c(/C=C2\C(=O)Nc3ccc(Cl)cc32)c1C | 75.4 |
| COc1cc2ncnc(Nc3cccc(Cl)c3)c2cc1OC | 80.8 |
| Cn1nc2c3c(cccc31)C(=O)c1ccccc1-2 | 105 |
| O=C1C(Cl)=C(N2C(=O)CCC2=O)C(=O)c2ccccc21 | 135 |
| CN(C)C[C@H]1CCn2c(c(C3=C(c4cn(C)c5ccccc45)C(=O)NC3=O)c3ccccc32)C1 | 100 |
| C[C@@H]1CCN(C(=O)CC#N)C[C@@H]1N(C)c1ncnc2[nH]ccc12 | 89.9 |
| N#C/C(=C\c1ccc(O)c(O)c1)C(=O)NCc1ccccc1 | 77.8 |
| CCN(CC)C(=O)c1ccc(Nc2nc(OCC3CCCCC3)c3[nH]cnc3n2)cc1 | 97.5 |

Study 3 — host: human; medium: microsomes or S9; tested at: 2 µM; time: 0.5 h
| SMILES | remaining compound |
| --- | --- |
| COc1c(Cl)c(-c2cc(C3(O)CCCCC3)on2)c(OC)c2c1OCO2 | 6.76% |
| CCOC(=O)N1CCC(NC(=O)COCC(=O)Nc2ccc(C#N)cc2)CC1 | 65.5% |
| CCOC(=O)c1c(NC(=O)CCC(=O)N(CC)CC)sc2c1CC(C)(C)OC2 | 0.538% |
| O=C(CN(CCc1ccccc1)C(=O)CN1C(=O)COc2ccccc21)NCC1CCCO1 (stereo not drawn) | 12.3% |
| COc1cc(=O)n(-c2ccccc2)cc1C(=O)NC1CC2CCC(C1)N2S(C)(=O)=O (stereo not drawn) | 80.1% |
| O=C(O)c1nccnc1C(=O)Nc1nc(-c2cccs2)n[nH]1 | 95.6% |
| Cc1nnc(C[S+]([O-])c2ccc(Cl)c(Cl)c2)n1C (stereo not drawn) | > 100% |
| O=S(=O)(NC1CCCC12CCOCC2)c1cccc2ccoc12 (stereo not drawn) | 69.8% |
| Cc1ncc2c(c1-c1nn[nH]n1)-c1ccccc1CC2 | 77.3% |
| Cc1cc(OC(Cc2ccc(Cl)cc2)c2ccc(Cl)cc2Cl)ncc1NC(=O)NC(C)(C)C (stereo not drawn) | 49.9% |
| CCOc1cc(=O)n2c(c1C(=O)N1CCCc3ccccc31)CCCC2 | 0.652% |

Study 4 — read-out: cell-free assay; technique: competition with immobilised ligand; tested at: 1 µM
Compound: CCS(=O)(=O)c1cc2cc(C[C@@](O)(CC(C)(C)c3ccc(F)cc3C(N)=O)C(F)(F)F)[nH]c2cn1
| target | remaining binding [%] |
| --- | --- |
| NUAK family SNF1-like kinase 2 (NUAK2, Homo sapiens, UniProt Q9H093) | 84 |
| Mitogen-activated protein kinase kinase kinase 4 (MAP3K4, Homo sapiens, UniProt Q9Y6R4) | 93 |
| Proto-oncogene tyrosine-protein kinase receptor Ret (RET, Homo sapiens, UniProt P07949, V804M) | 74 |
| Serine/threonine-protein kinase ULK2 (ULK2, Homo sapiens, UniProt Q8IYT8) | 85 |
| Cyclin-dependent kinase 17 (CDK17, Homo sapiens, UniProt Q00537) | 82 |
| STE20-like serine/threonine-protein kinase (SLK, Homo sapiens, UniProt Q9H2G2) | 88 |
| Epidermal growth factor receptor (EGFR, Homo sapiens, UniProt P00533, G719C) | 100 |
| Tyrosine-protein kinase JAK1, JH1 (JAK1, Homo sapiens, UniProt P23458) | 89 |
